# Published values of several laboratories.
# Each numbered part is a random draw from the data of one study; scales do not carry over between parts. Values joined by “and” are separate records of one study, mostly repeats; a detail may differ.

# Set 1
# Organism: Sarcocystis neurona
# Observed: parasite growth
# Tested at: 10 µM
# Time: 96 h
Compound,inhibition
Cc1occc(=O)c1O,-16.6%
CC(=O)Nc1nnc(S(N)(=O)=O)s1,-1.9%
COc1ccc(C2CNC(=O)C2)cc1OC1CCCC1 (stereo not drawn),-11.5%
CN(C)CCOC(C)(c1ccccc1)c1ccccn1 (stereo not drawn),-16%
CN(C)CCCN1c2ccccc2CCc2ccc(Cl)cc21,-9.7%
CN(C)[C@@H]1C(O)=C(C(=O)NCN2CCCC2)C(=O)[C@@]2(O)C(O)=C3C(=O)c4c(O)cccc4[C@@](C)(O)[C@H]3C[C@@H]12,-12%
C#C[C@]1(O)CC[C@H]2[C@@H]3CCC4=CC(=O)CC[C@@H]4[C@H]3CC[C@@]21C,-4.9%
CNS(=O)(=O)Cc1ccc2[nH]cc(CCN(C)C)c2c1,-12.8%

# Set 2
# Structure (SMILES): C=CCc1ccc(O)c(-c2ccc(O)c(CC=C)c2)c1
# Observed: chloride current
# ANO1 del476-501: Anoctamin-1 (ANO1, Homo sapiens, UniProt Q5XXA6, del476-501)
# Chain of UniProt Q5XXA6 (whole entry, unmodified, looked up): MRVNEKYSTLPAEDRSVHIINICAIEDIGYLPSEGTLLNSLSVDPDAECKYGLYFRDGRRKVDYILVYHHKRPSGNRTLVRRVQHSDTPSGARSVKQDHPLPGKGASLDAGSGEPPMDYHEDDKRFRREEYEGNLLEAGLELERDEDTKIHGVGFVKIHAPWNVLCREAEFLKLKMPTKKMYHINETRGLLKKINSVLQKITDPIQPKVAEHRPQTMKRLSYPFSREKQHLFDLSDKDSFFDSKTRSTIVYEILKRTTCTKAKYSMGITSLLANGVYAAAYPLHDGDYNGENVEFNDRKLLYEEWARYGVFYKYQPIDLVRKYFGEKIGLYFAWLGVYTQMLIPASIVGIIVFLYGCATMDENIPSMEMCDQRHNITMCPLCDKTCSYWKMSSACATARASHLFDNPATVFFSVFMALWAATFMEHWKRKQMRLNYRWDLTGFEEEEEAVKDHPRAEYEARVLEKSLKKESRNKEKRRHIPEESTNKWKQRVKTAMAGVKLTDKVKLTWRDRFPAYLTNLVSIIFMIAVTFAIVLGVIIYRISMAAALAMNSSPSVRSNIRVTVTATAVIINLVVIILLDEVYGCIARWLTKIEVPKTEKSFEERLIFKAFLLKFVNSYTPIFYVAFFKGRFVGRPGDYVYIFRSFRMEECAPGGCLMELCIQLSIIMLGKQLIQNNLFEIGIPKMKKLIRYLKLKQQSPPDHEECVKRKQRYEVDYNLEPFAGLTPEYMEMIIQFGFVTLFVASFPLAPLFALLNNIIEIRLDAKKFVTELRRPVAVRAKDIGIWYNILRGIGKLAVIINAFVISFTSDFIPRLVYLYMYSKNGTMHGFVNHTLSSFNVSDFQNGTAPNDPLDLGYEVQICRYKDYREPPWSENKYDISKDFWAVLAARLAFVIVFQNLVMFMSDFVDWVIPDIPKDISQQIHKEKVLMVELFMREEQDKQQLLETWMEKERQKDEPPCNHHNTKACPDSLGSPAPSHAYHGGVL
# ANO1 del476-501/F628A: Anoctamin-1 (ANO1, Homo sapiens, UniProt Q5XXA6, del476-501/F628A)
# ANO1: Anoctamin-1 (ANO1, Homo sapiens, UniProt Q5XXA6)
target,assay,setting,normalized current
ANO1 del476-501,whole-cell voltage clamp,"30 µM, wild type, concentration-response at -40 mV, added: 4 µM Ca2+",-0.0264
ANO1 del476-501,whole-cell voltage clamp,"30 µM, wild type, I-V at 0 mV, added: 4 µM Ca2+",-0.00016
ANO1 del476-501/F628A,"inhibitor, whole-cell voltage clamp","3 µM, F602A mutant",0.93
ANO1 del476-501,whole-cell voltage clamp,"3 µM, wild type, I-V at 0 mV, added: 4 µM Ca2+",-0.0017
"Anoctamin-1 (ANO1, Homo sapiens, UniProt Q5XXA6, del476-501/K629A)",inside-out patch clamp,"10 µM, membrane voltage -40 mV",-0.187
ANO1 del476-501/F628A,whole-cell voltage clamp,"30 µM, I-V at -60 mV, added: 4 µM Ca2+",-0.24
ANO1,inside-out patch clamp,"10 µM, membrane voltage 80 mV",0.642
ANO1,inside-out patch clamp,"10 µM, membrane voltage -60 mV",-0.436

# Other studies, line by line
SMILES,tested on,assay,test system,setting,scale,measurement,value
CC(=O)N[C@@H](Cc1c[nH]c2ccccc12)C(=O)N[C@@H](CCC(=O)C=[N+]=[N-])C(=O)OC(C)C,,UPLC-MS/MS,"EL4 tumor, C57BL/6 CES1-/- mice, tumor","subcutaneous, 0.3 mg/kg DON equivalent daily, 5 days",higher = more metabolite,sulfate level,3.18e+06 a.u. and 3.17e+06 a.u. and 2.84e+06 a.u. and 3.28e+06 a.u. and 3.29e+06 a.u. and 2.82e+06 a.u.
CNC(=O)c1cc(C(=O)NC2CC2)cn(Cc2ccccc2)c1=O,normal-adjacent epithelium patient-derived organoids sample F,CellTiter-Glo,,1 µM,relative to: DMSO,viability,70.7%

# Some of these lines once more (other studies, line by line):
SMILES,tested on,assay,test system,setting,scale,measurement,value
CC(=O)N[C@@H](Cc1c[nH]c2ccccc12)C(=O)N[C@@H](CCC(=O)C=[N+]=[N-])C(=O)OC(C)C,,UPLC-MS/MS,"EL4 tumor, C57BL/6 CES1-/- mice, tumor","subcutaneous, 0.3 mg/kg DON equivalent daily, 5 days",higher = more metabolite,sulfate level,3.18e+06 a.u. and 3.17e+06 a.u. and 2.84e+06 a.u. and 3.28e+06 a.u. and 3.29e+06 a.u. and 2.82e+06 a.u.
CNC(=O)c1cc(C(=O)NC2CC2)cn(Cc2ccccc2)c1=O,normal-adjacent epithelium patient-derived organoids sample F,CellTiter-Glo,,1 µM,relative to: DMSO,viability,70.7%
